Results pooled from the literature.
Every numbered part comes from another study and shows a few of its results, in no order.

Study 1
Target: RNA binding protein fox-1 homolog 2, RRM domain, GST-SBP tag (RBFOX2, Homo sapiens, UniProt O43251-10, residues 100-194)
Method: RNA Bind-n-Seq
Molecule type: RNA
Matrix: in vitro
Concentration: 365 nM
Setting: natural RNA segment, single round, ends assumed
Relative to: no-protein control
Direction: higher = stronger binding
Shared flanks, not repeated: GGGAGUUCUACAGUCCGACGAUC … UGGAAUUCUCGGGUGCCAA
Residues (chain): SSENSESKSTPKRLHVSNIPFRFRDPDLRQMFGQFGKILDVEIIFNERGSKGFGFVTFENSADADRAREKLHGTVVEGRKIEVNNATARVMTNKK
| Strand | RBNS enrichment (R) |
| --- | --- |
| UGAAAACCAGGCUGCAUGUUCUGCUAUGUAUGUGUGGGAAGCCUAGGUCCAGCCUGUGUAUGUUCUUUUGUUGGUUUGGAUUCUGAGAGUCCCAAGAGUCCAGGUUAGUU | 20.6 |
| UUUUGUCUUGUGUUGGGGUUAGAGAGAGCAGGAAGGGGGUUCUGACCCUCUUCCCUCCACUGAGUGCUGGACAUUCGGAACCCAAGUUCUUAUGGACCUACGGAGGAGAG | 0.496 |
| CUUCUAAUGCUUCACUUUUGAUGAUGCAGUAUGUUCCUUUAAAUCUUGGCAGAACUUUCUAAAGCUACUGCUUUCAAUAGAUUCCAGCCGCAUAUUCCCAUGGGCAUAUU | 0.474 |
| AUUCAUGCUUGAAGUAACCUUGCCGACAGUUGUGUGGCACAGACUCCCAGUACCAGCAAGGGGGCCGUAGGUAAUUGUGUGCUUUCUUAAAGAAGUGUAUGUUUUCUGAA | 0.764 |
| AUUACAAAAUGAAGAUUUAUACCAUUGUGGUUUAAGCUGUACUGAACUAAAUCUGUGGAAUGCAUUGUGAACUGUAAAAGCAAAGUAUCAAUAAAGCUUAUAGACUUAAA | 0.778 |
| GCAGGUGGGAUGAGGGAGACAGACCACUUUUCUAUAUUGCAGUGUGAAUGCUGGGCCCCUGCUCAAGUCUACCCUGAUCACCUCAGGGCAUAAAGCAUGUUUCAUUCUCU | 1.74 |
| GUUGGAUCACAGAAUGUGUGUCUGGGGCAUUAUCUGAAACGUGGUGUCAUCUGAUGCAUUUGGACCAUAUGCUGCCAGACUGCAGAACGGGGGAGCCGGGGCUCAGGGCC | 0.328 |
| CCAUAGGCUGCGUGAGUGUGAGUGUGUAUGGAAGUGUGUGCGCAAGUGUGUGCGCAUGCAUGAGUGCGCACACAAGUUUGAGUGUAUGAAUUCUUGUGCCCACACAUGCU | 7.83 |

Study 2
Target: Replicase polyprotein 1ab, polymerase (rep, Severe acute respiratory syndrome coronavirus 2, UniProt P0DTD1)
Observed: enzyme activity
Mode: inhibitor
Concentration: 20 µM
| SMILES | inhibition [%] |
| --- | --- |
| CC(C)CCN1c2nc(Nc3cc(F)c(O)c(F)c3)ncc2N(C)C(=O)C1C (stereo not drawn) | -1.61 |
| C=C[C@@H]1C[C@]1(NC(=O)[C@@H]1C[C@@H](Oc2ncc(OC)c3ccc(Cl)cc23)CN1C(=O)[C@@H](NC(=O)OC(C)(C)C)C(C)(C)C)C(=O)NS(=O)(=O)C1CC1 | -3.8 |
| COc1cc2c(Nc3ccc(NC(=O)c4ccccc4)cc3)ncnc2cc1OCCCN1CCOCC1 | 5.24 |
| Oc1ccc(Cl)cc1 | 26.7 |
| CC(C)CCC[C@@H](C)[C@H]1CC[C@H]2[C@@H]3CC=C4C[C@@H](O)CC[C@]4(C)[C@H]3CC[C@]12C | -5.89 |
| CC(=O)OCC(CCn1cnc2cnc(N)nc21)COC(C)=O | -4.58 |
| COc1ccc(C(=O)/C(Br)=C\C(=O)O)cc1 | 3.14 |
| COC(c1ccccc1)(c1ccccc1)[C@H](Oc1nc(C)cc(C)n1)C(=O)O | 15.1 |
| c1ccc2c(c1)CN1CCCC1=N2 | -0.72 |
| CCOC(=O)c1c2c3c(cccc3[nH]c1=O)C(=O)c1ccccc1-2 | -0.11 |
| CCC(=O)N[C@@H]1Cc2ccccc2[C@H](c2ccccc2)C1 | 1.69 |
| O=C(O)CN1C(=O)c2cccc3cccc(c23)C1=O | 19.5 |
| CC(=O)N[C@@H](CC(=O)N[C@@H](CCC(=O)O)C(=O)O)C(=O)O | 0.33 |
| CC[C@H](CC#N)OC(=O)N[C@@H](C)c1cccc(NC(=O)Nc2ccc(-c3cnco3)c(OC)c2)c1 | -2.78 |
| CCCCCCc1ccc(O)cc1O | 24.4 |
| O=C(/C=C/c1ccc(O)cc1)c1ccc(O)cc1O | 1.17 |
| CC[C@]1(O)C[C@H]2CN(CCc3c([nH]c4ccccc34)[C@@](C(=O)OC)(c3cc4c(cc3OC)N(C=O)[C@H]3[C@@](O)(C(=O)OC)[C@H](OC(C)=O)[C@]5(CC)C=CCN6CC[C@]43[C@@H]65)C2)C1 | 2.04 |
| O=S(=O)(O)c1ccc(O)cc1 | -1.13 |
| CO/N=C(\C(=O)N[C@@H]1C(=O)N2C(C(=O)O)=C(C[N+]3(C)CCCC3)CS[C@H]12)c1csc(N)n1 | 9.88 |
| CC(C)c1ccc(NC(=O)c2cccs2)c(-c2nc3ccccc3[nH]c2=O)c1 | -12.5 |
| c1ccc2[nH]c(-c3cscn3)nc2c1 | 21 |
| CN(C)CC[C@H](CSc1ccccc1)Nc1ccc(S(=O)(=O)NC(=O)c2ccc(N3CCN(Cc4ccccc4-c4ccc(Cl)cc4)CC3)cc2)cc1[N+](=O)[O-] | -0.4 |
| CN[C@@H]1CCc2[nH]c3ccc(C(N)=O)cc3c2C1 | 0.77 |
| O=C(Nc1ccccc1)N[C@@H]1C[C@@H](C(=O)O)Nc2cc(Cl)cc(Cl)c21 | 3.91 |
| CCN(CC)CCCCNc1ncc2cc(-c3c(Cl)cccc3Cl)c(NC(=O)NC(C)(C)C)nc2n1 | 1.04 |

Study 3
Target: Replicase polyprotein 1ab, main protease (rep, Severe acute respiratory syndrome coronavirus 2, UniProt P0DTD1)
Observed: enzyme activity
Mode: inhibitor
Concentration: 20 µM
Setting: hit confirmation
| SMILES | inhibition [%] |
| --- | --- |
| COCCCOc1ccnc(C[S+]([O-])c2nc3ccccc3[nH]2)c1C (stereo not drawn) | 94.2 |
| Oc1c(I)cc(I)c(O)c1I | 98.9 |
| O=C1c2c(O)cc(O)cc2O[C@H](c2cc(O)c(O)c(O)c2)[C@H]1O | 99.7 |
| CN(C)CCCCC(=O)Nc1ccc(NC(=S)NC(=O)c2ccc(C(C)(C)C)cc2)cc1 | 10.5 |
| C[C@H](NC(=O)/C(C#N)=C/c1cccc(Br)n1)c1ccccc1 | 92.3 |

Study 4
Cell line: HEK-293T
Observed: pseudovirus infection
Method: FDA-approved drug library screen
Organism: VSV pseudotyped with SARS-CoV-2 spike
Concentration: 10 µM
Time: 16 h
Relative to: vehicle-treated
| SMILES | GFP-positive cells [%] |
| --- | --- |
| O=C(O)c1cc(-c2ccc(F)cc2F)ccc1O | 95.2 |
| CCCNC(=O)NS(=O)(=O)c1ccc(Cl)cc1 | 110 |
| CC(=O)O[C@H]1C[C@@H]2CC[C@@H]3[C@H](CC[C@@]4(C)[C@H]3C[C@H]([N+]3(C)CCCCC3)[C@@H]4OC(C)=O)[C@@]2(C)C[C@@H]1[N+]1(C)CCCCC1 | 92 |
| CC(C)(Sc1cc(C(C)(C)C)c(O)c(C(C)(C)C)c1)Sc1cc(C(C)(C)C)c(O)c(C(C)(C)C)c1 | 120 |
| Cc1cccc(Nc2ccncc2S(=O)(=O)NC(=O)NC(C)C)c1 | 72.2 |

Study 5
Target: Interferon regulatory factor 7, full length, phosphomimetic (IRF7, Homo sapiens, UniProt Q92985, residues 1-503, S101K/S471D/S472D/S475D/S476D/S477D/S483D/S484D/S487D)
Method: protein-binding microarray
Molecule type: double-stranded DNA, one strand shown
Matrix: in vitro
Concentration: 250 nM
Setting: 60-bp whole probe
With: salmon DNA 0.4 mg/ml
Relative to: random background probes
Direction: higher = stronger binding
Shared flanks, not repeated: GCCTAGCAC … GTCTTGATTCGCTTGACGCTGCTG
Residues (chain): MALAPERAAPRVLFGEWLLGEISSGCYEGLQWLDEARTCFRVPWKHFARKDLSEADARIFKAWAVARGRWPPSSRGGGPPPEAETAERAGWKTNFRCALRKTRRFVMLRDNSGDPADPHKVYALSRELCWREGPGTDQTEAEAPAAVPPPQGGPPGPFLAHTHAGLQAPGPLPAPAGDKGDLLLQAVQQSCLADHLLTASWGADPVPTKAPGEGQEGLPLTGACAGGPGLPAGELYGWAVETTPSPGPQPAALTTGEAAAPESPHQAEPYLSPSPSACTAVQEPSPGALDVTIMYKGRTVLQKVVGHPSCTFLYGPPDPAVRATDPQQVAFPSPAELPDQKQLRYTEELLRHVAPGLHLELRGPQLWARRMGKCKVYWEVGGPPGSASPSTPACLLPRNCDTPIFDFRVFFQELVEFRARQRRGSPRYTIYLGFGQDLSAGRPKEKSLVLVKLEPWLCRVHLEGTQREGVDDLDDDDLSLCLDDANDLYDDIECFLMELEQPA
| Strand | log fluorescence [z-score] |
| --- | --- |
| TTAGATCTTAGTATCGATTAGTGCTAG | 1.03 |
| TCAATACTCTTCCATGGAACTGTGCTA | 0.55 |
| GACGGATTGCTTATCCTGACGTGCTAG | -0.536 |
| GTAGATTTCAGTTTCGATTAGTGCTAG | 8.93 |
| TCATCTTTCCACTTTCTACTGTGCTAG | 2.08 |
| TCAGGTTCAGATATAGGACTGTGCTAG | 0.12 |
| TCAGCTTTCCCGTCCAGACTGTGCTAG | 0.619 |
| GACGGTACCCTTCTCCTGACGTGCTAG | 0.192 |

Excerpt of the above (study 2):
| SMILES | inhibition [%] |
| --- | --- |
| CCC(=O)N[C@@H]1Cc2ccccc2[C@H](c2ccccc2)C1 | 1.69 |
| CCOC(=O)c1c2c3c(cccc3[nH]c1=O)C(=O)c1ccccc1-2 | -0.11 |
| COc1cc2c(Nc3ccc(NC(=O)c4ccccc4)cc3)ncnc2cc1OCCCN1CCOCC1 | 5.24 |
| CC(C)CCN1c2nc(Nc3cc(F)c(O)c(F)c3)ncc2N(C)C(=O)C1C (stereo not drawn) | -1.61 |
| c1ccc2[nH]c(-c3cscn3)nc2c1 | 21 |
